# Assay results from different studies.
# By UniProt entry, the sequences of proteins in these tests, tags left out.
# UniProt P41146, whole entry: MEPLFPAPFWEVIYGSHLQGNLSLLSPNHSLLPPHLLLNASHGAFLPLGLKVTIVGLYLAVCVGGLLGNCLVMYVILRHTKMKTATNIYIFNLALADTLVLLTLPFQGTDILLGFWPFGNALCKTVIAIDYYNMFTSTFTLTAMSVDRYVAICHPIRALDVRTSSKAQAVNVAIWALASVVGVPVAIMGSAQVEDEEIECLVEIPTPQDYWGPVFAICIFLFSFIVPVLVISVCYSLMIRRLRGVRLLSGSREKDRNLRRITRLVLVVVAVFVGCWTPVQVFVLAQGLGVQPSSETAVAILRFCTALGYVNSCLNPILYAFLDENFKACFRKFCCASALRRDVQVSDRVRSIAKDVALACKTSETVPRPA
# Compare with care: the assays were run in different laboratories. Numbers after ± are the reported error.
# OPRL1: Nociceptin receptor (OPRL1, Homo sapiens, UniProt P41146)
SMILES,tested on,assay,test system,setting,scale,measurement,result
Cc1ccccc1S(=O)(=O)Nc1cccc(C(=O)NC2CCN(c3ncnc4[nH]cnc34)CC2)c1,SARS-CoV-2,,Wuhan-Hu-1,200 µM,baseline: untreated infected cells,relative infection,19.3%
O=C1Cc2ccccc2N1C1CCN([C@@H]2CC[C@H]3CCCc4cccc2c43)CC1,OPRL1,calcium mobilization,CHO with Gαqi5,,baseline: compound over N/OFQ EC50,concentration ratio,120
COc1cc(Cc2cnc(N)nc2N)cc(/C=C/C(=O)N2N=Cc3ccccc3[C@@H]2C=C(C)C)c1OC,Bacillus anthracis,,,,,MIC,0.5 to 1 µg/mL
O=C(Nc1ccc(F)cc1)C1C(=O)N(O)C(=O)c2cc([N+](=O)[O-])ccc21 (stereo not drawn),Lymphocytic choriomeningitis mammarenavirus,minigenome reporter gene,,50 µM,,inhibition,30%
CC(C)[C@H]1CC[C@@H](N2CCC3(CC2)C(=O)NCN3c2ccccc2)CC1,OPRL1,calcium mobilization,CHO with Gαqi5,,baseline: baseline,Emax,278 ± 23%
CC[C@H](C)[C@H](NC(=O)[C@H](C)NC(=O)[C@H](CCC(=O)O)NC(=O)[C@H](CCC(=O)O)NC(=O)[C@H](CC(C)C)NC(=O)[C@H](CCCCN)NC(=O)[C@H](CCCCN)NC(=O)[C@H](CCSC)NC(=O)[C@H](CCC(=O)O)NC(=O)[C@H](Cc1ccc(O)cc1)NC(=O)[C@H](CCC(=O)O)NC(=O)[C@H](CC(C)C)NC(=O)[C@H](CC(=O)O)NC(=O)[C@H](CC(C)C)NC(=O)[C@H](Cc1ccccc1)NC(=O)[C@@H](NC(=O)[C@@H](NC(=O)[C@H](CC(N)=O)NC(=O)[C@@H](NC(=O)[C@H](CCC(N)=O)NC(=O)[C@H](CC(=O)O)NC(=O)[C@H](CC(C)C)NC(=O)[C@@H](N)CO)[C@@H](C)CC)C(C)C)[C@@H](C)O)C(=O)N[C@@H](CCCCN)C(=O)N[C@@H](CCCCN)C(=O)N[C@@H](CC(C)C)C(=O)N[C@@H](CCC(=O)O)C(=O)N[C@@H](CCC(=O)O)C(=O)N[C@H](C(=O)N[C@@H](Cc1ccc(O)cc1)C(=O)N[C@H](C(=O)N[C@@H](CC(=O)O)C(=O)N[C@@H](CC(C)C)C(=O)N[C@@H](CCCCN)C(=O)N[C@@H](CCC(=O)O)C(=O)N[C@@H](CC(C)C)C(=O)O)[C@@H](C)CC)[C@@H](C)O,SARS-CoV-2 Delta pseudovirus,"pseudovirus infection, inhibitor, luciferase",Caco-2,24 h,,IC50,718 nM
O=C(NCc1ccc(F)cc1)C1C(=O)N(O)C(=O)c2cc(C(F)(F)F)ccc21 (stereo not drawn),Lymphocytic choriomeningitis mammarenavirus,minigenome reporter gene,,100 µM,baseline: DMSO,remaining activity,51.9%
CC[C@H](C)[C@H](NC(=O)[C@H](C)NC(=O)[C@H](CCC(=O)O)NC(=O)[C@H](CCC(=O)O)NC(=O)[C@H](CC(C)C)NC(=O)[C@H](CCCCN)NC(=O)[C@H](CCCCN)NC(=O)[C@H](CCSC)NC(=O)[C@H](CCC(=O)O)NC(=O)[C@H](Cc1ccc(O)cc1)NC(=O)[C@H](CCC(=O)O)NC(=O)[C@H](CC(C)C)NC(=O)[C@H](CC(=O)O)NC(=O)[C@H](CC(C)C)NC(=O)[C@H](Cc1ccccc1)NC(=O)[C@@H](NC(=O)[C@@H](NC(=O)[C@H](CC(N)=O)NC(=O)[C@@H](NC(=O)[C@H](CCC(N)=O)NC(=O)[C@H](CC(=O)O)NC(=O)[C@H](CC(C)C)NC(=O)[C@H](CO)NC(=O)[C@H](CC(C)C)NC(=O)[C@H](CC(=O)O)NC(=O)[C@@H]1CCCN1C(=O)[C@H](C)N)[C@@H](C)CC)C(C)C)[C@@H](C)O)C(=O)N[C@@H](CCCCN)C(=O)N[C@@H](CCCCN)C(=O)N[C@@H](CC(C)C)C(=O)N[C@@H](CCC(=O)O)C(=O)N[C@@H](CCC(=O)O)C(=O)N[C@@H](CO)C(=O)N[C@@H](Cc1ccc(O)cc1)C(=O)N[C@H](C(=O)N[C@@H](CC(=O)O)C(=O)N[C@@H](CC(C)C)C(=O)N[C@@H](CCCCN)C(=O)N[C@@H](CCC(=O)O)C(=O)N[C@@H](CC(C)C)C(=O)O)[C@@H](C)CC,SARS-CoV-2 Alpha pseudovirus,"pseudovirus infection, inhibitor, luciferase",Caco-2,24 h,,IC50,265 nM
O=C(CCc1ccccc1)N1CCCC2(C1)Nc1cccnc1N=C2NC1CCCC1 (stereo not drawn),HEK293,"cell viability, CellTiter-Glo",,72 h,,CC50,> 70000 nM
CN1C(=O)CCc2cc(C(=O)NCC=CS(C)(=O)=O)ccc21,Chikungunya virus,"viral replication, nanoluciferase reporter",181/25-nLuc-Capsid,,,IC50,190 ± 20 nM
O=C(NC1CCN(c2ncnc3[nH]cnc23)CC1)c1cccc(NS(=O)(=O)c2ccc([N+](=O)[O-])cc2)c1,SARS-CoV-2,,Wuhan-Hu-1,66.67 µM,baseline: untreated infected cells,relative infection,17.2%
CC[C@H](C)[C@H](NC(=O)[C@H](C)NC(=O)[C@H](CCC(=O)O)NC(=O)[C@H](CCC(=O)O)NC(=O)[C@H](CC(C)C)NC(=O)[C@H](CCCCN)NC(=O)[C@H](CCCCN)NC(=O)[C@H](CCSC)NC(=O)[C@H](CCC(=O)O)NC(=O)[C@H](Cc1ccc(O)cc1)NC(=O)[C@H](CCC(=O)O)NC(=O)[C@H](CC(C)C)NC(=O)[C@H](CC(=O)O)NC(=O)[C@H](CC(C)C)NC(=O)[C@H](Cc1ccccc1)NC(=O)[C@@H](NC(=O)[C@@H](NC(=O)[C@H](CC(N)=O)NC(=O)[C@@H](NC(=O)[C@H](CCC(N)=O)NC(=O)[C@H](CC(=O)O)NC(=O)[C@H](CC(C)C)NC(=O)[C@@H](N)CO)[C@@H](C)CC)C(C)C)[C@@H](C)O)C(=O)N[C@@H](CCCCN)C(=O)N[C@@H](CCCCN)C(=O)N[C@@H](CC(C)C)C(=O)N[C@@H](CCC(=O)O)C(=O)N[C@@H](CCC(=O)O)C(=O)N[C@@H](C)C(=O)N[C@@H](Cc1ccc(O)cc1)C(=O)N[C@H](C(=O)N[C@@H](CC(=O)O)C(=O)N[C@@H](CC(C)C)C(=O)N[C@@H](CCCCN)C(=O)N[C@@H](CCC(=O)O)C(=O)N[C@@H](CC(C)C)C(=O)O)[C@@H](C)CC,SARS-CoV-2 Delta pseudovirus,"pseudovirus infection, inhibitor, luciferase",Caco-2,24 h,,IC50,440 nM
O=C(NC1CCN(c2ncnc3[nH]cnc23)CC1)c1cccc(NS(=O)(=O)c2ccc(Cl)cc2)c1,SARS-CoV-2,,Wuhan-Hu-1,0.2743 µM,baseline: untreated infected cells,relative infection,72.4%
CC[C@H](C)[C@H](NC(=O)[C@H](C)NC(=O)[C@H](CCC(=O)O)NC(=O)[C@H](CCC(=O)O)NC(=O)[C@H](CC(C)C)NC(=O)[C@H](CCCCN)NC(=O)[C@H](CCCCN)NC(=O)[C@H](CCSC)NC(=O)[C@H](CCC(=O)O)NC(=O)[C@H](Cc1ccc(O)cc1)NC(=O)[C@H](CCC(=O)O)NC(=O)[C@H](CC(C)C)NC(=O)[C@H](CC(=O)O)NC(=O)[C@H](CC(C)C)NC(=O)[C@H](Cc1ccccc1)NC(=O)[C@H](Cc1ccccc1)NC(=O)[C@@H](NC(=O)[C@H](CC(N)=O)NC(=O)[C@@H](NC(=O)[C@H](CCC(N)=O)NC(=O)[C@H](CC(=O)O)NC(=O)[C@H](CC(C)C)NC(=O)[C@@H](N)CO)[C@@H](C)CC)C(C)C)C(=O)N[C@@H](CCCCN)C(=O)N[C@@H](CCCCN)C(=O)N[C@@H](CC(C)C)C(=O)N[C@@H](CCC(=O)O)C(=O)N[C@@H](CCC(=O)O)C(=O)N[C@H](C(=O)N[C@@H](Cc1ccc(O)cc1)C(=O)N[C@H](C(=O)N[C@@H](CC(=O)O)C(=O)N[C@@H](CC(C)C)C(=O)N[C@@H](CCCCN)C(=O)N[C@@H](CCC(=O)O)C(=O)N[C@@H](CC(C)C)C(=O)O)[C@@H](C)CC)[C@@H](C)O,SARS-CoV pseudovirus,"pseudovirus infection, inhibitor, luciferase",Caco-2,"24 h, dual mutations",,IC50,289 nM
O=C(Nc1ccc2c(c1)C(=O)N(O)C(=O)C2C(=O)NCc1ccc(F)cc1)c1ccccc1 (stereo not drawn),Lymphocytic choriomeningitis mammarenavirus,minigenome reporter gene,,100 µM,baseline: DMSO,remaining activity,62.5%

# Excerpt of the above:
SMILES,tested on,assay,test system,setting,scale,measurement,result
COc1cc(Cc2cnc(N)nc2N)cc(/C=C/C(=O)N2N=Cc3ccccc3[C@@H]2C=C(C)C)c1OC,Bacillus anthracis,,,,,MIC,0.5 to 1 µg/mL
